Measured values of several laboratories.
A part holds a random share of what one study measured.

Set 1
Target: Max-binding protein MNT, bHLH-zipper, MAX partner unstated (MNT, Homo sapiens, UniProt Q99583, residues 220-300)
Method: protein-binding microarray
Form: double-stranded DNA, one strand shown
Matrix: in vitro
Tested at: not given
Notes: k-mer, scored over probes, only values ≥0.25
Direction: higher = stronger binding
Target sequence (chain): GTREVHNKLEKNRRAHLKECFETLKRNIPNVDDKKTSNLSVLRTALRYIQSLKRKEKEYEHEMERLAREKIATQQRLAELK
Oligonucleotide | E-score
AACCCCGC | 0.253
CCTCGTGC | 0.457
CCCCTCCA | 0.317
GGGGCGAA | 0.291
ACATGCCG | 0.358
ACACGGGA | 0.287
CATGCTAG | 0.376
AACACGTG | 0.497
CGCGTGAA | 0.377
ACATGCGC | 0.421
AGCCCACG | 0.357
ATCCACGC | 0.366
CACGCTTA | 0.31
GAGCACGC | 0.434
AGCACGCA | 0.352
ACTCCACG | 0.335
GCGTGACA | 0.384
GCGTGGCA | 0.415
TAGCGTGA | 0.273
CCATGAGG | 0.391
ACGTGGAG | 0.445
CATGCCGG | 0.313
CGGGTGGC | 0.264
CCACCTGG | 0.348
CACGTGAG | 0.49

Set 2
Target: Histone acetyltransferase KAT6A, winged helix 2, GST fusion (KAT6A, Homo sapiens, UniProt Q92794, residues 85-181)
Method: protein binding microarray
Form: double-stranded DNA, one strand shown
Matrix: in vitro
Tested at: not given
Notes: 8-mer, flanks averaged, mean of 2 arrays, mostly near background
Relative to: not given
Direction: higher = stronger binding
Residues (chain): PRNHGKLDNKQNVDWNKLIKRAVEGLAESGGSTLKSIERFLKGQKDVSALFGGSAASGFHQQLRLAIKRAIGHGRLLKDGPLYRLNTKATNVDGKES
Oligonucleotide | E-score
TATATATA | 0.188
ACAACCAT | 0.0152
AGTCCCAT | -0.266
GAGTTGGA | -0.0423
CAAAAGAG | -0.0817
AACCGAAT | 0.0121
TACCTTAA | -0.201
AGTTAATG | -0.0592
TCATCAGA | 0.0328
ATGTGTGA | -0.152
CAGTTGGG | 0.0757
ATAAGGAC | -0.0468
AACCTTCG | 0.12
ACAATAAC | -0.0271
AGCCTATC | -0.116
ATTTGGCG | 0.00724
CAGTACTG | 0.0994
AGGGGGGC | -0.00449
AACAATCC | 0.0252
AGATGACG | -0.0432
AAAGAGGT | 0.0364

Set 3
Target: RNA binding protein fox-1 homolog 2, RRM domain, GST-SBP tag (RBFOX2, Homo sapiens, UniProt O43251-10, residues 100-194)
Method: RNA Bind-n-Seq
Form: RNA
Matrix: in vitro
Tested at: 365 nM
Notes: natural RNA segment, single round, ends assumed
Relative to: no-protein control
Direction: higher = stronger binding
Shared flanks, not repeated: GGGAGUUCUACAGUCCGACGAUC … UGGAAUUCUCGGGUGCCAA
Target sequence (chain): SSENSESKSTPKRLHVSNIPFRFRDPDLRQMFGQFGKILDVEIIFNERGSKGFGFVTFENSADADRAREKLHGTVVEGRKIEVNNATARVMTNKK
Oligonucleotide | RBNS enrichment (R)
UUUUAAGAAUAAUAUAUUGACUUACUGAACUGAAGCAUUCUGAGUUGAAAGGAGCUCCAGAGGAGUGGAGUUCUGUGUUGCUCACAUGUUAAAAUCUUGCUCACCUUCAG | 0.438
UCUCUCUCCUGAGAGCAAGCAUUUGUGUCAGCCACAGGAAGCAGAAGUAUUAAGGGAGGAAGUGCUGGUAGCUGCCCUGUGGGGAGACUCCCUAGGAAAGUAACGGGCAC | 0.354
UUGAGGAUCCUGACACUGAACUGAAGCGCGGGCAUUGGGUUCUCAAGGACUAACAUGCAAUCUGUGAAUUAAAAAUCUCAAUGCACUGUCUAGUGGAAGAUGAAUGGACA | 0.359
CUGUGGCUGAAAAUAAAAUCUUGUCUAGCACAGUUAAAGUCAUUAAAAAUAAAAAUGACAGCUUUAGCACAAUUUUAAGAAAAUGCCCCUCUCUAUUACCACAUUUUCUC | 1.06
CGGGGAGGCCCUCACCUUCCAGAGAGGACAGACACAGAUUUCCUGCUGGGGGAGGGAGGAGUCCACGCAUCCUGAUGCUGCCUGGAAGCUUAUUUUCCCGUGGCCAGGAC | 0.344
UUUGACUAAUGUGUCUGGACUACUUGUAACUAGUUUUAUGAGCCUGUCAUAAUUUGCCAGGGUUCCCAUAUGUAUAUUAAGUUAAUUAAAUUCAGAAUUAAAAUAAUAAA | 0.965
AGAAGGGGCAAAAACGUGACUAUUAAUGAUUGAUAAGCACCAGUGAAGAAGUUCUAACUUUUAGCAUGCUGCACAGAAACUGGUAUAACAUGCCUUCAGUAUACUAACAC | 4.87
AAAAUGACAUCUAAGCUUUACCUGGUCACCAUGUGAUGUGAUCAGAUGCUUGAAAUUUAACACUUUUCACUUGGUUCUUAUACUGAAUGCCGACUCUGCUCUGUGUUAGA | 0.506

Set 4
Target: Ras GTPase-activating protein-binding protein 1, full length (G3BP1, Homo sapiens, UniProt Q13283)
Sequence of UniProt Q13283 (whole entry, looked up): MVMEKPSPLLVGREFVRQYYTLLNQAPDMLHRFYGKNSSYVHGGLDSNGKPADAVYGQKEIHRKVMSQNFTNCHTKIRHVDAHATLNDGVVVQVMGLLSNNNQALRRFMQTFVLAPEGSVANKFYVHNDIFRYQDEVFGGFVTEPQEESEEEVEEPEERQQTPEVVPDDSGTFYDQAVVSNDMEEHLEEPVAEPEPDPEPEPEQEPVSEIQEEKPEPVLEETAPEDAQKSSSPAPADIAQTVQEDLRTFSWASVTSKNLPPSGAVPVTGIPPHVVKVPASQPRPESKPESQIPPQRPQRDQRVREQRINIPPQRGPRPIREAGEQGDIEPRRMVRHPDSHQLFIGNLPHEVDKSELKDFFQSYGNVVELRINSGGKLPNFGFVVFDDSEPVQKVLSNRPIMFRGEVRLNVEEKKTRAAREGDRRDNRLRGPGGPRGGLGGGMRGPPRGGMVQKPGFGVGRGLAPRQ
Method: RNA Bind-n-Seq
Form: RNA
Matrix: in vitro
Tested at: 200 nM
Notes: whole 134-nt RNA, ends assumed
With: 150 mM KCl
Relative to: input library
Direction: higher = stronger binding
Shared flanks, not repeated: GGGAGUUCUACAGUCCGACGAUC … UGGAAUUCUCGGGUGUCAAGG
Oligonucleotide | log2 enrichment
UGGCCCUGGUGGCAUGCGGGGAGGAAGAGGUGGCCUCAUGGAUCGUGGUGGUCCCGGUGGAAUGUUCAGAGGUGGCCGCGGUGGAGACAG | 0.0846
AAGUCCUGUGCUACACAUCGUAUGUACCGAAUCGGAAAAAAAGGAGGUUUUUUUGGAAAGUAUUAUGUUACGCCGUUCGGAUCUGCACUU | -1.15
CACAGACAACACGCACCCACACAGACACAGAAAAAAGGGGUUGGGAUGGGGACAGGGUGCACAGCAGGGCGGGGUAGGACCCCAGCCCCU | 1.88
UCCUGUGCUACACAUCGUAUGUACCGAAUCGGGUUUGGGUUUUUUUGGGAAAAAAAGGGAAAGUAUUAUGUUACGCCGUUCGGAUCUGCA | -0.158
UGGCCCUGGUGGCAUGCGGGGAGGAAGAGGUGGCCUCAUGGAUCGUGGUGGUCCCGGUAGAAUGUUCAGAGGUGGCCGUGGUGGAGACAG | 0.0655
CCUGUGCUACACAUCGUAUGUACCGAAUCGGGGAAAAAAAGGGGUUUUUUUGGGGAGGGGAAAGUAUUAUGUUACGCCGUUCGGAUCUGC | 0.502
UUCAGGAUGAAGAUGCAUCAGGGGGCGAUCAAGAUCAGGAAGAAAGAAGAUGGAACAAAAGGACUCAGCAGAUGCUUCAUGGUCUUCAGG | -0.891
UGGCCCUUCCCCUGGAGCCAUGCUGGGCCCUAGCCCGGGUCCCUCGCCGGGCUCCGCCCACAGCAUGAUGGGGCCCAGCCCAGGGCCGCC | 0.375
CACAGACAACACGCACCCACACAGACACAGAGGGAAGGGGUUGGGAUGGGGACAGGGUGCACAGCAGGGCGGGGUAGGACCCCAGCAAAU | 1.92
